Published values from different studies.
Every numbered part comes from another study and shows a few of its results, in no order.
Sequence of UniProt Q9C0B0 (30-357, looked up): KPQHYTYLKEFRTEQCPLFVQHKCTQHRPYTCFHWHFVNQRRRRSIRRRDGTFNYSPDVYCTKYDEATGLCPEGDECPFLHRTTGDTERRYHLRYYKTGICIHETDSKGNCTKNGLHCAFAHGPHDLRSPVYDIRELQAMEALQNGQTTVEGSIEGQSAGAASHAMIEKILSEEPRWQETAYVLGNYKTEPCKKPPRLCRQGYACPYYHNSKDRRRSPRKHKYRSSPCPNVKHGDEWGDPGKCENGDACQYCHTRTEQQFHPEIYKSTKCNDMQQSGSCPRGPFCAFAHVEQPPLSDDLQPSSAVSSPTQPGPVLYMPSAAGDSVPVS

Series 1
Target: Fragile X messenger ribonucleoprotein 1, C-terminal low-complexity region (Fmr1, Mus musculus, UniProt P35922)
Method: RNA Bind-n-Seq
Molecule type: RNA
Medium: in vitro
Tested at: 200 nM
Setting: whole 134-nt RNA, ends assumed
Added: 150 mM KCl
Relative to: input library
Reading: higher = stronger binding
Quantity: log2 enrichment
Shared flanks, not repeated: GGGAGUUCUACAGUCCGACGAUC … UGGAAUUCUCGGGUGUCAAGG
UUUAAACUGAAGCCGCGGCCGAAAACGCCAAGAGAUUGAUGCUGUAGCUGCCCUGAGAUAACCAGGACUGUGGAAUCGGGAAGAGCUCAU: -0.817
CAAGUCCUGUGCUACACAUCGUAUGUACCGAAUCGGAAAAGGAAAAGGAAAAGGGGAAAGUAUUAUGUUACGCCGUUCGGAUCUGCACUU: -0.627
CUCAAGUCCUGUGCUACACAUCGUAUGUACCGAAUCGGGGCCGGGCCGGCCGGGAAAGUAUUAUGUUACGCCGUUCGGAUCUGCACUUCC: -0.0638
CAAGUCCUGUGCUACACAUCGUAUGUACCGAAUCGGGUGGGAAAGGGAAAAAGGGAAAGUAUUAUGUUACGCCGUUCGGAUCUGCACUUC: 0.673
UCAAGUCCUGUGCUACACAUCGUAUGUACCGAAUCGGAAAAAAAGGAAAGGUGGAAAGUAUUAUGUUACGCCGUUCGGAUCUGCACUUCC: -1.21
CCUGUGCUACACAUCGUAUGUACCGAAUCAAACCCCCAAACCCCCCCAAACCCCCCCAAAAAAGUAUUAUGUUACGCCGUUCGGAUCUGC: -0.0519
CAAGUCCUGUGCUACACAUCGUAUGUACCGAAUCGGGGUUUGGGGUGGGGAGGGGAAAGUAUUAUGUUACGCCGUUCGGAUCUGCACUUC: 1.27
UCCUCAAGUCCUGUGCUACACAUCGUAUGUACCGAAUCGGGCGGGCGGCGGGAAAGUAUUAUGUUACGCCGUUCGGAUCUGCACUUCCAG: 0.338
CAAGUCCUGUGCUACACAUCGUAUGUACCGAAUCAAACCCAAAUUUAAACCCAAAAAAGUAUUAUGUUACGCCGUUCGGAUCUGCACUUC: -0.145
UGGAUAUGGUUAUAGAAGAAGUGGCCGAGAUAAAUAUGGCCCUCCUACUCGCACAGAGUACAGACUUAUUGUGGAGAAUUUGUCAAGUCG: -0.987

Series 2
Target: RNA binding protein fox-1 homolog 2, RRM domain, GST-SBP tag (RBFOX2, Homo sapiens, UniProt O43251-10, residues 100-194)
Method: RNA Bind-n-Seq
Molecule type: RNA
Medium: in vitro
Tested at: 365 nM
Setting: natural RNA segment, single round, ends assumed
Relative to: no-protein control
Reading: higher = stronger binding
Quantity: RBNS enrichment (R)
Shared flanks, not repeated: GGGAGUUCUACAGUCCGACGAUC … UGGAAUUCUCGGGUGCCAA
Construct (chain): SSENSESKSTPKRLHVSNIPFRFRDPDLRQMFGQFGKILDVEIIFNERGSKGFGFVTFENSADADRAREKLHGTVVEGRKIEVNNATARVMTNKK
AAUUAGUCACUCUUAGAGUAAUCUGUAUUCAGAACAAUUCAAACAAGCUGGAGGAACAGCUCCUGAUAGUGUGAGAAUUGAGCAAAUGGGAGAAAGCAAUAUUGUUAGAU: 0.329
UAUGCAUGCAGGUAACAAGAGUGAAAGCAGAGCUGACAUUUGCCAGGCUUUCCUGGAGCAGGCCAGUGAGUGUAGACGUGUGUAAAGAUGUCGCCAGUUCUCACUGUCUG: 21.1
AACUCCAAAAGUGCCUUAAAGCCAGGUUUGUGUCUCCUUUCAGGAGAGAGCGUGUAACGUCAGAUUUGUGCCUGUCUCGAACAUUCUGUCCUAAUCAUACUUAAACAUCA: 0.773
GUUUAACUACAGAUGACUUCUGUUGUAGACUCACAAGUUUAACUGUUGUAUUAUAACAGUAUUACAUGUCAACGGUGUGGUUAUGACCUUUAUUUAUAUAAAAACCAAAU: 0.423
CUCUCCACACAUCAUUUACUUCAUGCUGUGUACUUAUGUACUGGUUUUUGCAUUUUACUCACUUGAUAAGUCUGCUCCACUGGUUUCAUCAGAUAGACUUGCUGCUACUG: 0.6
GGUCCUGGUUUCCAAUUUGGGUUCUGCUGUGUGACUCUGGGCAAGUCACUCUCCCUCUCUGGGCAUGUCUGCUACAAAUGGACAAGAUUAUUUCAGAGGUCACUGAAGAC: 1.48
UAAACUCUGACUUCAAAGGUUUUUGGGGAAAGAUAGGUUUACCUCACAGUUAUGUUUCCAUUGUAAUUUCUAGGUUCCUCACAAAAAUCUAUUUCAGUGCUGUAGCUGUU: 0.401
AUCCCUUACCAUCCAAGGGGCACUCCCUUGGUUGGAUUUUCUAUGACAGCACAGGGGACAGGUGGCACACCAUGAGAGGUCUGCCCAGGGUGGGAGCAGUGUCACUGUGC: 0.351
UAUACGUGGCAGUAGUUCAGCAAUAAUACAUCACAACAUUGCAUCAAUCAUGGGCUCCCACCAAUAAACACUUUACGGGUGGGUGUGUGUGUGUGUGCGCGCGCGCGCAU: 0.399
AGCUGGGAUGCUUACUGUGAAAGGGUCUUGUGAGUGACUAAUGGAAUAUAUGGCUGUGAGAUUUUGCUGUUUUUCUUUCCUUUUGAUUUUUUUUUAAUCCUCCCAGUACU: 1.34
UCUCUCUCUGUUGAGUAACCUCUCAAGGACCAGAGUGGAGUCCAGAUUGUUAGGCUCAGAUCAAGGGUGGGGAAAUACUGCCCUCUCGUGGUGGCUUUUCAUCCAGGCCU: 0.165
UCUUUAUAAAGUGGUAAAAGCCUGAAAUUCAGGGCAGCUCUCCAUGAGGUGCUGAAGGGCUCUUUUCAUAAGAAGCUAAGGCACUGCUGCCUGCCCCAGGUGUCCCGCUC: 0.277

Series 3
Target: Sal-like protein 4, full length isoform A (SALL4, Homo sapiens, UniProt Q9UJQ4, residues 1-1053)
Sequence of UniProt Q9UJQ4 (whole entry, looked up): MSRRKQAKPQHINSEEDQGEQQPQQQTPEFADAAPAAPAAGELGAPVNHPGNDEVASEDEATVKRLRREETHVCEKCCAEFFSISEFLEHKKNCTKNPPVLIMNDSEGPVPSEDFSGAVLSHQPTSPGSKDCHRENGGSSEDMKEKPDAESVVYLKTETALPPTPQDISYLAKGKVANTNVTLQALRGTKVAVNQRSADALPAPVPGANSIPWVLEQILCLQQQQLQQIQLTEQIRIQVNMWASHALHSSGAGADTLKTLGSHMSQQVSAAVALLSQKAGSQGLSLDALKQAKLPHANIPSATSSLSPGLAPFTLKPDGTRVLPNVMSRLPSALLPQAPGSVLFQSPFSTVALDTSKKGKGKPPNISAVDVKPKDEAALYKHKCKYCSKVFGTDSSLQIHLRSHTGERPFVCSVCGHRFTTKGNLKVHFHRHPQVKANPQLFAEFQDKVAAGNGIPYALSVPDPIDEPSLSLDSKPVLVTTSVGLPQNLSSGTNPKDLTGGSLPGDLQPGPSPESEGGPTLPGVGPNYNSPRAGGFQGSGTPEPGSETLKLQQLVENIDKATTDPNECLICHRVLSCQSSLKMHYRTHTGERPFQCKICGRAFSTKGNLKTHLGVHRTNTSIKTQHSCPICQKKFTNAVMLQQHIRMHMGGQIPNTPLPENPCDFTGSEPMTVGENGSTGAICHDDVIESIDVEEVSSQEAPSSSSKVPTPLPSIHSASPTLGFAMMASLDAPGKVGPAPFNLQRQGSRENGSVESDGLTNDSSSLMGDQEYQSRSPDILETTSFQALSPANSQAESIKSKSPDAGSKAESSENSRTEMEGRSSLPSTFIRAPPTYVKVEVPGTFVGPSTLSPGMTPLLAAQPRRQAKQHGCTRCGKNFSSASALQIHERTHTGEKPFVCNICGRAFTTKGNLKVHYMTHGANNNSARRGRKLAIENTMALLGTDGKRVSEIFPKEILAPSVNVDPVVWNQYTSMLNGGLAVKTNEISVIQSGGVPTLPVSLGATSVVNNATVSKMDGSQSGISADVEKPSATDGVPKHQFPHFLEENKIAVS
Method: universal PBM
Molecule type: double-stranded DNA, one strand shown
Medium: in vitro
Tested at: 600 nM
Setting: 8-mer, flanks averaged, mean of replicates
Reading: higher = stronger binding
Quantity: E-score
CAAGACTC: -0.0725
AAATATTG: 0.428
ACCCAACC: -0.138
AGCAGGAC: -0.202
AGCGACCC: -0.392
GATAGCAA: 0.182
ATTCGCAA: 0.21
TGACAACA: 0.13
AAGGCATC: -0.137
GAAACAGA: 0.157
CGGTAGCA: -0.0556
CGGTGTAA: -0.174
ACACTAGC: -0.0975
GATGAGAA: 0.106
AAATGACT: 0.265
GGTTGCTA: -0.0246
AAAAATGG: 0.245
CTATCATC: 0.207
AAGTATGT: 0.295
CAACCTGA: 0.0508
CAACTACC: -0.0163
ATCATCGC: 0.0769
CGCCGCCA: -0.373
CAGATACC: -0.0597
CCCATAGG: -0.147

Series 4
Target: Histone acetyltransferase KAT6A, winged helix 2, GST fusion (KAT6A, Homo sapiens, UniProt Q92794, residues 85-181)
Method: protein binding microarray
Molecule type: double-stranded DNA, one strand shown
Medium: in vitro
Tested at: not given
Setting: 8-mer, flanks averaged, mean of 2 arrays, mostly near background
Relative to: not given
Reading: higher = stronger binding
Quantity: E-score
Construct (chain): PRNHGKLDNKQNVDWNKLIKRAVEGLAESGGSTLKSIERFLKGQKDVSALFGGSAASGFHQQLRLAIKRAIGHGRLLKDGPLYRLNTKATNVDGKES
GTAAGGAA: -0.147
GAGTTAAA: -0.0203
GCAACGCC: 0.17
CAGTCTCG: -0.175
TCGAAAAA: 0.0947
CTAGCATA: 0.0326
ACTTGCCC: -0.105
CTGACAGC: -0.0196
ATCCAGAG: 0.0975
CATTGGTA: -0.0539
CGCGACCC: 0.189
GGAACCCC: -0.054
CCAACCCG: 0.163
CTACGGAA: -0.188
CAAGTCAA: -0.23
CCCGCAGC: 0.126
CTCCGAAG: 0.224
ATGCTTTA: -0.0293
GACGGCTA: 0.00639
ATCTCTTG: -0.19
CCAACGTA: -0.159
GTACCAAA: 0.0052
AAATCGGG: -0.0876
ATTGAAGG: -0.116
ATTTAACA: 0.00547

Other studies, line by line
GGGAGUUCUACAGUCCGACGAUCUUGAGAACAGCUCUCCAAACCGGAACCGCCGUAAAAAAAAUAAGCAAAAUGAUAUUUGUACCGAAAAAACAGAAGUUAAAUCAUGUAAAGUAAAUGCUGCCAACCUUCCAGGUCCUAAAGCAACAGAGGAUUGAGCAUCA — bound/input enrichment (RING finger protein unkempt homolog, zinc fingers 1-6, SBP tag (UNK, Homo sapiens, UniProt Q9C0B0, residues 30-357); RNA Bind-n-Seq; RNA, in vitro; 100 nM, RNA with constant flanks, ends assumed; relative to: input RNA pool, higher = stronger binding): 0.471 ratio

Some of these lines once more (series 4):
ATCTCTTG: -0.19
CCAACGTA: -0.159
GTACCAAA: 0.0052
AAATCGGG: -0.0876
